Results pooled from the literature.
Each line is one published result; not all experiments were run side by side. ± gives the spread as reported.
Cell line: HeLa

COc1ccc(-c2noc(NC(=O)c3ccc(F)c(C(F)(F)F)c3)c2C#N)c(OC)c1  IC50 (cell growth or viability, MTT; 72 h): 2.06 µM
CO[C@@H]1[C@@H](O[C@@H]2O[C@H](C)[C@@H](O[C@H]3C[C@@](C)(O)[C@@H](OC(=O)NC4CCCCC4)[C@H](C)O3)[C@H](N(C)C)[C@H]2O)[C@@H](CC=O)C[C@@H](C)[C@@H](O[C@H]2CC[C@H](N(C)C)[C@@H](C)O2)/C=C/C=C/C[C@@H](C)OC(=O)C[C@H]1O  IC50 (cell growth or viability, CCK-8; 72 h): > 50 µM
Fc1cccc(CNc2nc(NCc3ccccc3)c3ccccc3n2)c1  IC50 (ODD-Luc degradation; p97-independent substrate): 11 ± 3 µM
NC(=O)c1cccnc1.O=c1[nH]cc(F)c(=O)[nH]1.O=c1[nH]cc(F)c(=O)[nH]1.O=c1[nH]cc(F)c(=O)[nH]1  IC50 (cell growth or viability, MTT; 72 h): 1.59 µM
C[C@]12CC/C(=N/O)C=C1CCC1C2CC[C@]2(C)/C(=C/c3ccccn3)CCC12 (stereo partly drawn)  IC50 (cell growth or viability, MTT; 72 h): > 100 µM
CC=C(C)C(=O)OC1C(O)C2(COC(C)=O)C(O)CC3(C)C(=CCC4C5(C)CCC(OC6OC(C(=O)OC)C(OC7OC(CO)C(O)C(O)C7O)C(O)C6OC6OC(CO)C(O)C(O)C6O)C(C)(CO)C5CCC43C)C2CC1(C)C (stereo not drawn)  IC50 (cell growth or viability, CCK-8; 48 h): 48.7 µM
COc1ccc(CNC[C@@](O)(COCc2ccc(OC)cc2)[C@@H]2CC[C@@H](C)C[C@H]2OCc2ccc(OC)cc2)cc1  IC50 (cell growth or viability, MTT; 72 h): 3.5 µM
CC[P+](c1ccc(C)cc1)(c1ccc(C)cc1)c1ccc(C)cc1  IC50 (cell growth or viability, resazurin; 72 h): 3.83 µM
N#Cc1c(-c2ccc(Cl)cc2)cc(-c2cccc3ccccc23)nc1Nc1ccc(Nc2nc(-c3cccc4ccccc34)cc(-c3ccc(Cl)cc3)c2C#N)cc1  IC50 (cell growth or viability, MTT; 72 h): 1.27 µM
C[C@]12CC/C(=N\OCCN3CCOCC3)C=C1CCC1C2CC[C@]2(C)/C(=C/c3ccccn3)CCC12 (stereo partly drawn)  IC50 (cell growth or viability, MTT; 72 h): 44.1 µM
CC(C)c1ccc(/C=C/C(=O)N[C@@H]2O[C@H](CO)[C@@H](O)[C@H](O)[C@H]2O)cc1  IC50 (cell growth or viability; 96 h): > 250 µM
O=C(Cc1ccc(-c2ccc(OCCN3CCOCC3)cc2)cn1)N(O)Cc1ccccc1  IC50 (cell growth or viability, CCK-8; 48 h): 1.1 µM
COc1cccc2c(NCc3ccccc3)nc(Nc3cccc(F)c3)nc12  IC50 (ODD-Luc degradation; p97-independent substrate): 22 ± 4 µM
Cc1cc(C#N)cc(C)c1Oc1cc(Nc2ccc(C#N)cn2)nc2ccncc12  IC50 (48 h): > 127 µM
COc1ccc(C(C)(O)C(C)(C)C(=O)O)cc1 (stereo not drawn)  IC50 (cell growth or viability): 126 µM
COc1cccc2c1C(=O)c1c(O)c3c(c(O)c1C2=O)C[C@@](O)(C(=O)CO)C[C@@H]3O[C@H]1C[C@H](N)[C@@H](O)[C@H](C)O1  IC50 (cell viability, MTT; 2 h exposure then 72 h culture): 0.2 ± 0.11 µg/mL
CN(Cc1ccccc1)C(=O)Cc1ccc(-c2ccc(OCCN3CCOCC3)cc2)cn1  IC50 (cell growth or viability, CCK-8; 48 h): > 1 µM
CCCCCCCCOc1c(O)cc(C(=O)O[C@@H]2Cc3c(O)cc(O)cc3O[C@@H]2c2cc(O)c(O)c(O)c2)cc1O  IC50 (cell growth or viability, CCK-8; 24 h): 88.2 µM
Cc1ccc(C(C)C)cc1.Cl.[Cl][Ru+].[Ru+].c1ccc(-c2cn(CCCCOc3ccccc3-c3nc4ccccc4s3)nn2)nc1  IC50 (cytotoxicity, MTT; 48 h): 7.68 ± 1.2 µM
COC(=O)[C@@H]1CCCN1C(=O)[C@H](Cc1ccccc1)NC(=O)OC(C)(C)C  IC50 (cell growth or viability, SRB): 12 µM
O=[N+]([O-])c1ccc(/C=N/NC(=S)Nc2ccccc2)s1  IC50 (cell growth or viability): 3.6 µM
COc1cc(F)ccc1-c1ncnc(Nc2cccc(C[S@@](C)(=N)=O)c2)n1  IC50 (cell growth or viability; 96 h): 1.1 µM
CCn1cc(/C=C/c2ccc3ccccc3[n+]2CC)c2ccccc21  IC50 (cell growth or viability, MTT; 24 h): 6.12 µM
Nc1ncnc2c1ncn2[C@@H]1O[C@H](CSSc2ccccn2)[C@@H](O)[C@H](F)[C@H]1O  IC50 (cell growth or viability): 192 µM
[Cl][Cu][Cl].c1ccc(-c2nnc(-c3ccc4c(c3)OCO4)[nH]2)nc1  IC50 (cell growth or viability, MTT; 24 h): 5.23 µM
O=C1/C(=C(\O)c2ccccc2)C(=O)[C@@]2(C(=O)OC3CCCCC3)CS[C@H](c3ccccc3)N12  IC50 (cell growth or viability, resazurin): 31.3 µg/mL
COc1cc(CN2CCN(c3ccccc3F)CC2)c2cc3[n+](cc2c1O)CCc1cc2c(cc1-3)OCO2  IC50 (cell growth or viability, SRB; 48 h): 5.88 µg/mL
CCC1=C(CC)C2=[N+]3C1=Cc1c(CC)c(CC)c4[n]1[Ir-3]31([n+]3ccccc3)([n+]3ccccc3)[n]3c(c(CC)c(CC)c3=CC3=[N+]1C(=C4)C(CC)=C3CC)=C2.Cl  IC50 (cell growth or viability, MTT; 72 h): 0.1 µM
CO[C@@H]1[C@@H](O[C@@H]2O[C@H](C)[C@@H](O[C@H]3C[C@@](C)(O)[C@@H](O)[C@H](C)O3)[C@H](N(C)C)[C@H]2O)[C@@H](CC=O)C[C@@H](C)[C@@H](O[C@H]2CC[C@H](N(C)C)[C@@H](C)O2)/C=C/C=C/C[C@@H](C)OC(=O)C[C@H]1OC(=O)c1ccc(C(C)(C)C)cc1  IC50 (cell growth or viability, CCK-8; 72 h): 26.4 µM
Oc1ccc2c(c1)OCc1c-2oc2cc3c(cc12)OCO3  IC50 (cell growth or viability, MTT; 72 h): 22.5 µM
O=C(/C=C/c1ccc2c(c1)C(=O)N(CCCc1ccccc1)CC2)NO  IC50 (cell growth or viability, SRB; 72 h): 2.53 µM
c1ccc(Cc2nnnn2Cc2ccc(-c3ccc(OCCN4CCOCC4)cc3)cn2)cc1  IC50 (cell growth or viability, CCK-8; 48 h): > 4 µM
COC(=O)CNc1cc(CS(=O)(=O)c2ccc3ccccc3c2)ccc1OC  IC50 (cell growth or viability, MTS; 48 h): 0.096 µM
[Cl][Pt-]1([Cl])[S]C(Nc2ccccc2)=N[N+]1=Cc1ccc(-c2ccccc2)s1  IC50 (cell growth or viability): 105 µM
CCCCCCCCCCCCCCCC(=O)O[C@H]1[C@H](C)O[C@@H](O[C@H]2[C@H](N(C)C)[C@@H](O)[C@H](O[C@H]3[C@@H](CC=O)C[C@@H](C)[C@@H](O[C@H]4CC[C@H](N(C)C)[C@@H](C)O4)/C=C/C=C/C[C@@H](C)OC(=O)C[C@@H](O)[C@@H]3OC)O[C@@H]2C)C[C@@]1(C)O  IC50 (cell growth or viability, CCK-8; 72 h): 8.81 µM
Cc1cc(N2CCN(C(=O)CN3CCCCC3)CC2)n2ncnc2n1  IC50 (cell growth or viability, MTT): 59.1 µM
Cc1ccc(CNC(=O)Cc2ccc(-c3ccc(OCCN4CCOCC4)cc3)cn2)cc1  IC50 (cell growth or viability, CCK-8; 48 h): 0.027 µM
CC(=O)OC[C@H]1O[C@@H](NC(=O)COc2ccc(-c3ccccc3)cc2)[C@H](OC(C)=O)[C@@H](OC(C)=O)[C@@H]1OC(C)=O  IC50 (cell growth or viability; 96 h): ≥ 250 µM
COc1cc(CN2CCN(c3ccc(F)cc3)CC2)c2cc3[n+](cc2c1O)CCc1cc2c(cc1-3)OCO2  IC50 (cell growth or viability, SRB; 48 h): 4.42 µg/mL
CCCCNC(=O)O[C@H]1[C@H](C)O[C@@H](O[C@H]2[C@H](N(C)C)[C@@H](O)[C@H](O[C@H]3[C@@H](CC=O)C[C@@H](C)[C@@H](O[C@H]4CC[C@H](N(C)C)[C@@H](C)O4)/C=C/C=C/C[C@@H](C)OC(=O)C[C@@H](O)[C@@H]3OC)O[C@@H]2C)C[C@@]1(C)O  IC50 (cell growth or viability, CCK-8; 72 h): > 50 µM
Nc1nc2c(ncn2CC(=O)N[C@@H](Cc2ccccc2)C(=O)N[C@@H](Cc2ccccc2)C(=O)O)c(=O)[nH]1  IC50: > 500 µM
COc1ccc(CNC[C@](O)(COCc2ccccc2)[C@@H]2CC[C@@H](C)C[C@H]2OCc2ccccc2)cc1  IC50 (cell growth or viability, MTT; 72 h): 2.4 µM
CCc1ccc([C@H](C)CC(=O)NC(=O)N[C@@H]2O[C@H](COC(C)=O)[C@@H](OC(C)=O)[C@H](OC(C)=O)[C@H]2OC(C)=O)cc1  IC50 (cell growth or viability; 96 h): 88 µM
C=C1C(=O)O[C@@H]2/C=C(\C)CC/C=C(/C(=O)OC)C[C@@H](OC(=O)/C(C)=C\C)[C@@H]12  IC50 (cell growth or viability; 48 h): 9.92 µM
COc1ccc(CNC[C@@](O)(COCc2ccc(F)cc2)[C@@H]2CC[C@@H](C)C[C@H]2OCc2ccc(F)cc2)cc1  IC50 (cell growth or viability, MTT; 72 h): 1.6 µM
Cc1c(C(=O)NNC(=S)Nc2ccc(Cl)cc2)nnn1Cc1nc2ccccc2[nH]1  IC50 (48 h): 3.87 ± 0.2 µM
CN1CCCNC(=O)CCC(=O)NCCCN(C)CCCNc2cccc3c2C(=O)c2cccc(c2C3=O)NCCC1  IC50 (cell growth or viability, CCK-8; 48 h): > 20 µM
CNC(=O)c1c(C)oc2cc(Oc3ncnc4cc(OC)c(OCCCCCCC(=O)NO)cc34)ccc12  IC50 (cell growth or viability, CCK-8; 48 h): 1.49 µM
S=c1n(-c2ccccc2)c2c3ccccc3nc3[n+]2[n]1[Ir-3]12([S]3)([c]3ccc4ccccc4c3-c3sc4ccccc4[n+]31)[c]1ccc3ccccc3c1-c1sc3ccccc3[n+]12  IC50 (cell viability, MTT; irradiation 450 nm, 15.5 mW/cm^2, 15 min): 0.005 ± 0.001 µM
Nc1nc2c(ncn2CC(=O)N[C@@H](Cc2ccccc2)C(=O)N[C@@H](Cc2ccccc2)C(=O)N[C@@H](Cc2ccc(O)cc2)C(=O)O)c(=O)[nH]1  IC50: > 500 µM
CC(=O)O[C@H]1CC[C@]2(C)[C@H]3CC=C4[C@@H]5[C@@H](C)[C@H](C)CC[C@]5(C(=O)O)CC[C@@]4(C)[C@]3(C)CC[C@H]2C1(C)C  IC50 (cell growth or viability, MTT; 24 h): 26.1 µM

Some of these lines once more:
CNC(=O)c1c(C)oc2cc(Oc3ncnc4cc(OC)c(OCCCCCCC(=O)NO)cc34)ccc12  IC50 (cell growth or viability, CCK-8; 48 h): 1.49 µM
S=c1n(-c2ccccc2)c2c3ccccc3nc3[n+]2[n]1[Ir-3]12([S]3)([c]3ccc4ccccc4c3-c3sc4ccccc4[n+]31)[c]1ccc3ccccc3c1-c1sc3ccccc3[n+]12  IC50 (cell viability, MTT; irradiation 450 nm, 15.5 mW/cm^2, 15 min): 0.005 ± 0.001 µM
Nc1nc2c(ncn2CC(=O)N[C@@H](Cc2ccccc2)C(=O)N[C@@H](Cc2ccccc2)C(=O)N[C@@H](Cc2ccc(O)cc2)C(=O)O)c(=O)[nH]1  IC50: > 500 µM
CC(=O)O[C@H]1CC[C@]2(C)[C@H]3CC=C4[C@@H]5[C@@H](C)[C@H](C)CC[C@]5(C(=O)O)CC[C@@]4(C)[C@]3(C)CC[C@H]2C1(C)C  IC50 (cell growth or viability, MTT; 24 h): 26.1 µM
